Assay results pooled from the literature.
Numbered parts are unrelated; each lists some results of a single study. Positions count from the first letter of the parent shown.

Block 1 — target: CCNE2, cyclin fold, Cln2 fusion (human); method: yeast growth competition, sequencing; matrix: yeast; notes: weak parent motif; baseline: not given; reading: higher = stronger binding
Starting sequence: ORC1 docking peptide (human); PRARKRLELGNLG; partner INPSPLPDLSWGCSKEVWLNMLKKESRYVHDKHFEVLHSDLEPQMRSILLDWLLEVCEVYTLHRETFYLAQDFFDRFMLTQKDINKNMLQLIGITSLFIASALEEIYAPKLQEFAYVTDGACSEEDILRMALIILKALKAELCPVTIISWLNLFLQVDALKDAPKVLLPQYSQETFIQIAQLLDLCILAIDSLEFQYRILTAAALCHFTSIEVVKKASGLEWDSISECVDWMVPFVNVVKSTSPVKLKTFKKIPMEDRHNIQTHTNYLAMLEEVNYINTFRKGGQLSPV
Substitution | normalised enrichment score
L7A | 0.0432
G13W | -0.67
G10F | 0.293
E8N | 1.15
K5M | 0.595
L12I | 0.42
P1G | 0.372
L12P | 0.905
G10C | 0.379
R2D | 0.665

Block 2 — method: DHFR PCA, deep sequencing; matrix: yeast; with: (+)-ABA 0 µM; baseline: wild-type fitted maximum; reading: higher = stronger binding
Target: ABI1, truncated, D143A, DHFR fusion (Arabidopsis thaliana)
Notes: methotrexate growth selection, single substitutions
Starting sequence: PYL1, truncated, DHFR fusion (Arabidopsis thaliana); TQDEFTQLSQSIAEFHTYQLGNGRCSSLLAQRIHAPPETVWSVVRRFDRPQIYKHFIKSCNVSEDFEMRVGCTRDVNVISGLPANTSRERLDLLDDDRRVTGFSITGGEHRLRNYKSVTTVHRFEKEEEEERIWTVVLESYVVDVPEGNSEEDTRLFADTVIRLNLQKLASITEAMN; partner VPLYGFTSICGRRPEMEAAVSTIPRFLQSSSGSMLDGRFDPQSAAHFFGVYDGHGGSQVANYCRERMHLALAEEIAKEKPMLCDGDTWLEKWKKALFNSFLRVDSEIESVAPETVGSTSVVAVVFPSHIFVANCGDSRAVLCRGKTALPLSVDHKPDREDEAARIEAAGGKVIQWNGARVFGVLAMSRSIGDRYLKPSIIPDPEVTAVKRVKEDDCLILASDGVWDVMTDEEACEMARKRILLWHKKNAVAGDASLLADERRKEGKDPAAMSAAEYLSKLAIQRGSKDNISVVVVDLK
Substitution | relative binding score [%]
Y18M | 2.04
R90A | -3.88
V121N | -1
S26A | 13.6
H55A | 18.8
E38A | 1.47
S9A | 35.2
K168W | 14.4
I172E | -8.45
G107M | 0.195
G21R | 18.6
E109V | 2.42

Block 3 — target: CREB5, bZIP domain (human); method: DHFR protein complementation; matrix: yeast; baseline: wild-type JUN-FOS pair; reading: higher = stronger binding
Notes: single substitutions, most at no-binding floor
Starting sequence: JUN, bZIP domain (human); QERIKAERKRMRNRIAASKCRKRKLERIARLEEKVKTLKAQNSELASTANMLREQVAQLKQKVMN; partner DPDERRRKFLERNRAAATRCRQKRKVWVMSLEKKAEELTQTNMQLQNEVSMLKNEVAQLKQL
Substitution | binding fitness
A49T | -0.97 natural log
Q41C | -1.06 natural log
T37Y | -0.28 natural log
E32R | -0.288 natural log
V35F | -1.07 natural log
E33V | -0.688 natural log
L38R | -1.31 natural log
S47C | -0.29 natural log
E32G | -0.812 natural log

Single results of other studies
Substance | target | test | system | setting | how to read | endpoint | result
PhoQ, residues 284 288 289 292 302 303 ALVSVA | PhoP, residues 12 14 15 18 19 MHTVL (Escherichia coli, UniProt P23836) | Sort-seq, item: YFP reporter | E. coli | PhoQ-PhoP variant library, with: 10 µM Mg2+ | baseline: high Mg2+ state, higher = stronger signaling | fold induction | 18.8
